Experimental data of several laboratories.
Each line is one published result; not all experiments were run side by side.
Organism: Staphylococcus aureus

| SMILES | test | test system | conditions | MIC |
| --- | --- | --- | --- | --- |
| O=C1c2ccccc2NC(c2ccc([N+](=O)[O-])cc2)N1/N=C/c1ccc([N+](=O)[O-])cc1 (stereo not shown) | microbial growth, broth dilution | MRSA | 24 h, drug-resistant strain, clinical isolate | > 256 µg/mL |
| N=C(N)NCCC[C@@H]1NC(=O)[C@H](CCCNC(=N)N)NC(=O)[C@H](CCCNC(=N)N)NC(=O)[C@H](CCCNC(=N)N)NC(=O)[C@H](Cc2c[nH]c3ccccc23)NC(=O)[C@H](CCCNC(=N)N)NC(=O)[C@H](CCCNC(=N)N)NC(=O)[C@@H](N)CCn2cc(nn2)C[C@@H](C(N)=O)NC1=O | – | – | 24 h, 37 °C, in 0.01% acetic acid | 62.5 µg/mL |
| CC[C@H](C)[C@H](N)C1=N[C@H](C(=O)N[C@@H](CC(C)C)C(=O)N[C@H](CCC(=O)O)C(=O)N[C@H](C(=O)N[C@H]2CCCCNC(=O)[C@H](CC(N)=O)NC(=O)[C@@H](CC(=O)O)NC(=O)[C@H](Cc3c[nH]cn3)NC(=O)[C@@H](Cc3ccccc3)NC(=O)[C@H](Cc3ccccc3)NC(=O)[C@@H](CCCN)NC2=O)[C@@H](C)CC)CS1 | broth microdilution | ATCC 29213, LB medium | 18 h, 37 °C, added: ZnSO4 0.3 mM | 4 µg/mL |
| CCCS[C@H]1[C@H](O)[C@@H](N)[C@@H](O[C@H]2[C@H](O[C@@H]3O[C@H](CO)[C@@H](O[C@H]4O[C@@H](CN)[C@@H](O)[C@H](O)[C@H]4N)[C@H]3O)[C@@H](O)[C@H](N)C[C@@H]2N)O[C@@H]1CO | – | methicillin-resistant, AAC(6') ANT(4',4'') APH(3') | – | 2 µg/mL |
| C/C(=N\NC(=N)N)c1nnn(-c2ccc(S(=O)(=O)NC3CCCC3)cc2)c1C | microbial growth, broth dilution | MRSA USA300 | drug-resistant strain | 8 µg/mL |
| CC(C)=CCc1cc2c(cc1O)OC[C@H]1c3ccc(O)c(CC=C(C)C)c3O[C@@H]21 | – | – | – | 4 µg/mL |
| CCCCCCCCCCCCCC(=O)N[C@H](CCN)C(=O)N[C@@H]1C(=O)N[C@@H](CCN)C(=O)N[C@@H](CC(C)C)C(=O)N[C@@H](CCN)C(=O)N[C@H](Cc2ccccc2)C(=O)N[C@@H](CC(C)C)C(=O)N[C@@H](CCN)C(=O)N[C@H](Cc2ccc(O)cc2)C(=O)N[C@@H](C(C)C)C(=O)N[C@@H](CC(=O)O)C(=O)O[C@@H]1C | broth microdilution | BNCC 186335 | – | 2 µg/mL |
| O=[N+]([O-])[O-].S=c1[nH]cnc2[nH]cnc12.[Ag+].c1ccc(P(c2ccccc2)c2ccccc2)cc1.c1ccc(P(c2ccccc2)c2ccccc2)cc1 | agar dilution | methicillin-resistant | 24 h, 37 °C | 1250 µg/mL |
| CCO[C@H]1[C@H](O)[C@@H](N)[C@@H](O[C@H]2[C@H](O[C@@H]3O[C@H](CO)[C@@H](O[C@H]4O[C@@H](CN)[C@@H](O)[C@H](O)[C@H]4N)[C@H]3O)[C@@H](O)[C@H](N)C[C@@H]2N)O[C@@H]1CO | microbial growth, broth dilution | MRSA | clinical isolate | 8 µg/mL |
| CC(C)CCCCCCCCC/C=C/C(=O)N[C@@H](CC(=O)O)C(=O)N[C@H]1CNC(=O)[C@@H]2CCCN2C(=O)[C@H](Cc2ccccc2)NC(=O)[C@@H]([C@@H](C)O)NC(=O)CNC(=O)[C@H](CC(=O)O)NC(=O)CNC(=O)[C@H](CC(=O)O)NC(=O)CNC(=O)[C@H]2CCCCN2C1=O | – | MRSA USA300 | added: Ca2+ 10 mM | 8 µg/mL |
| CCCCCCCCCCN1C(=O)/C(=N\NC(N)=S)c2cc(C)ccc21 | broth microdilution | BAA41 MRSA | 18 h, 37 °C | > 192 µg/mL |
| CC(=O)N[C@@H](CCCNC(=N)N)C(=O)N[C@@H](Cc1c[nH]c2ccccc12)C(=O)N[C@@H](CCCNC(=N)N)C(=O)N[C@@H](Cc1c[nH]c2ccccc12)C(=O)N[C@@H](Cc1c[nH]c2ccccc12)C(=O)N[C@@H](CCCCN)C(=O)N[C@@H](Cc1ccccc1)C(=O)N[C@H](C(N)=O)C(C)C | – | MSSA ATCC 29213, MEM medium | overnight, 37 °C | 1.4 µM |
| CC[C@H](C)[C@H](NC(=O)[C@@H](Cc1ccccc1)NC)C(=O)OC[C@H](N)C(=O)N[C@H](CCC(N)=O)C(=O)N[C@@H](C(=O)N[C@H](C(=O)OC[C@H](N)C(=O)N[C@H]1C(=O)N[C@@H](C)C(=O)N[C@@H](C2CCCCC2)C(=O)N[C@@H]([C@@H](C)CC)C(=O)O[C@H]1C)[C@@H](C)CC)[C@@H](C)CC | broth microdilution | ATCC 700698, MRSA, brain heart infusion broth | 16 h, 37 °C | 1 µg/mL |
| COc1ccc2ccc3c(c2c1)C=[N+]1C2CCCCC2[N+]2=Cc4cc(C)ccc4[O][Au-]21[O]3.F[P-](F)(F)(F)(F)F (stereo not shown) | bacterial growth, broth microdilution | vancomycin-intermediate | 24 h | > 20 µM |
| CC(C)[C@H](NC(=O)[C@H](CCCCN)NC(=O)[C@H](CCCNC(=N)N)NC(=O)CNC(=O)[C@H](C)NC(=O)[C@H](CC(N)=O)NC(=O)[C@H](CCCNC(=N)N)NC(=O)[C@@H](NC(=O)[C@H](CCCCN)NC(=O)[C@H](CC(=O)O)NC(=O)[C@@H](NC(=O)[C@@H](NC(=O)[C@H](CCCNC(=N)N)NC(=O)[C@H](CCCNC(=N)N)NC(=O)[C@H](Cc1c[nH]c2ccccc12)NC(=O)[C@H](Cc1c[nH]c2ccccc12)NC(=O)CN)[C@@H](C)O)C(C)C)C(C)C)C(=O)O | bacterial growth | MRSA, ESBL-positive | 18 h | > 256 µg/mL |
| N=C(N)NCCC[C@@H]1NC(=O)[C@H](CCCNC(=N)N)NC(=O)[C@H](CCCNC(=N)N)NC(=O)[C@H](Cc2c[nH]c3ccccc23)NC(=O)[C@H](Cc2c[nH]c3ccccc23)NC(=O)[C@H](Cc2c[nH]c3ccccc23)NC(=O)[C@H](Cc2c[nH]c3ccccc23)NC(=O)[C@H](CCCNC(=N)N)NC1=O | broth microdilution | MRSA ATCC 43300, TSB | overnight | 1.95 µM |
| CC[C@H](C)[C@H](NC(=O)[C@H](CCCN)NC(=O)[C@H](CC(N)=O)NC(=O)[C@H](Cc1c[nH]c2ccccc12)NC(=O)[C@H](Cc1ccccc1)NC(=O)[C@H](CCCN)NC(=O)[C@H](CCCCNC(=N)N)NC(=O)[C@H](CC(C)C)NC(=O)[C@H](Cc1c[nH]c2ccccc12)NC(=O)[C@H](CCCN)NC(=O)[C@H](CCCCNC(=N)N)NC(=O)[C@H](CC(C)C)NC(=O)CNC(C)=O)C(=O)N[C@@H](CCCN)C(=O)N[C@@H](CCCCNC(=N)N)C(N)=O | – | – | 12 h, added: plasma pretreatment | 3.13 µM |
| CC(C)C[C@@H]1NC(=O)[C@H](C)NC(=O)[C@H](NC(=O)[C@H](CO)NC(=O)[C@@H](CCCCN)NC(=O)[C@@H](C)NC(=O)[C@@H](N)Cc2ccccc2)[C@H](C(N)=O)OC(=O)[C@H](CC(C)C)NC1=O | – | MSSA ATCC 29213 | TFA salt | 16 to 32 µg/mL |
| CN1C(=O)[C@@H]2NC(=O)[C@@H]3NC(=O)[C@@H](c4ccc(O)cc4)NC(=O)[C@H](NC(=O)C(NCc4cccc(C(F)(F)F)c4)c4ccc(O)cc4)Cc4c[nH]c5cc(ccc45)-c4cc3cc(c4O)Oc3ccc(cc3)C[C@H]1C(=O)N[C@@H](C(=O)O)c1ccc(O)c(c1)Oc1ccc2cc1 (stereo partly shown) | – | ATCC 33591 MRSA, Mueller-Hinton broth | – | 8 µg/mL |

Repeated from above:
| SMILES | test | test system | conditions | MIC |
| --- | --- | --- | --- | --- |
| CC(C)[C@H](NC(=O)[C@H](CCCCN)NC(=O)[C@H](CCCNC(=N)N)NC(=O)CNC(=O)[C@H](C)NC(=O)[C@H](CC(N)=O)NC(=O)[C@H](CCCNC(=N)N)NC(=O)[C@@H](NC(=O)[C@H](CCCCN)NC(=O)[C@H](CC(=O)O)NC(=O)[C@@H](NC(=O)[C@@H](NC(=O)[C@H](CCCNC(=N)N)NC(=O)[C@H](CCCNC(=N)N)NC(=O)[C@H](Cc1c[nH]c2ccccc12)NC(=O)[C@H](Cc1c[nH]c2ccccc12)NC(=O)CN)[C@@H](C)O)C(C)C)C(C)C)C(=O)O | bacterial growth | MRSA, ESBL-positive | 18 h | > 256 µg/mL |
| N=C(N)NCCC[C@@H]1NC(=O)[C@H](CCCNC(=N)N)NC(=O)[C@H](CCCNC(=N)N)NC(=O)[C@H](Cc2c[nH]c3ccccc23)NC(=O)[C@H](Cc2c[nH]c3ccccc23)NC(=O)[C@H](Cc2c[nH]c3ccccc23)NC(=O)[C@H](Cc2c[nH]c3ccccc23)NC(=O)[C@H](CCCNC(=N)N)NC1=O | broth microdilution | MRSA ATCC 43300, TSB | overnight | 1.95 µM |
| CC[C@H](C)[C@H](NC(=O)[C@H](CCCN)NC(=O)[C@H](CC(N)=O)NC(=O)[C@H](Cc1c[nH]c2ccccc12)NC(=O)[C@H](Cc1ccccc1)NC(=O)[C@H](CCCN)NC(=O)[C@H](CCCCNC(=N)N)NC(=O)[C@H](CC(C)C)NC(=O)[C@H](Cc1c[nH]c2ccccc12)NC(=O)[C@H](CCCN)NC(=O)[C@H](CCCCNC(=N)N)NC(=O)[C@H](CC(C)C)NC(=O)CNC(C)=O)C(=O)N[C@@H](CCCN)C(=O)N[C@@H](CCCCNC(=N)N)C(N)=O | – | – | 12 h, added: plasma pretreatment | 3.13 µM |
